Measured values collected from several papers.
Each line is one published result; not all experiments were run side by side. ± gives the spread as reported.
Organism: Salmonella typhimurium

Compound | test | test system | setting | how to read | quantity | result
O=[N+]([O-])c1ccc(NC2CCNCC2)c(C(F)(F)F)c1 | SOS/umu test | TA1535/pSK1002, TGA medium | 0.25 mg/mL, 4 h, together with: 10% rat liver S9 | – | survival | 86.4%
COCCN(CCOC)N=O | mutagenicity, Ames plate incorporation | TA1535 | 1500 µg/plate, 3 d, without S9, methanol | – | revertant colonies per plate | 17.7 ± 4
OC(CCN1CC=C(c2ccc(F)cc2)CC1)c1ccc(F)c2ccccc12 (stereo not drawn) | genotoxicity, SOS/umu test | TA1535/pSK1002 | 0.008 mg/mL, 4 h, without S9, lower range | – | induction factor | 0.7
CC(=O)N1CCC(C(=O)N2CCN3C(=O)c4cc(-c5ccccc5)ccc4NC(=O)C3C2)CC1 (stereo not drawn) | – | TA1537 | 1581 µg/plate | – | revertants per plate | 10.5
N#C[C@@]1(n2ccc(N)nc2=O)O[C@H](CO)[C@@H](O)[C@H]1O | – | TA98 | 10 µM, without S9 | – | viability | 96%
CN(N=O)c1ccc(F)cc1 | mutagenicity, Ames plate incorporation | TA100 | 5000 µg/plate, 3 d, without S9, methanol | – | revertant colonies per plate | 128 ± 12
COc1cccc(-c2n[nH]c(SCc3ccccn3)n2)c1OC | Ames test, plate incorporation | TA100 | 0.50 mg/plate, with rat liver S9 | – | revertant colonies per plate | 104
O=[N+]([O-])c1ccc(N2CCN(CCC(O)c3ccc(F)cc3)CC2)c(C(F)(F)F)c1 (stereo not drawn) | SOS/umu test | TA1535/pSK1002 | 0.125 mg/mL, 4 h, with S9, lower range | – | survival | 134%
CN(CC(C)(C)C)N=O | mutagenicity, Ames plate incorporation | TA1537 | 2500 µg/plate, without S9, methanol | – | revertant colonies per plate | 5.3 ± 1
O=[N+]([O-])c1ccc(N2CCC(NCCC(O)c3ccc(F)c4ccccc34)CC2)c(C(F)(F)F)c1 (stereo not drawn) | SOS/umu test | TA1535/pSK1002 | 6.1e-05 mg/mL, 4 h, with 10% rat liver S9 | – | survival | 90.9%
CC(C)N(N=O)C(C)C | mutagenicity, Ames plate incorporation | TA100 | 1500 µg/plate, without S9, methanol | – | revertant colonies per plate | 150 ± 7
Cc1cc(C(=O)NC(C)(C)COc2cccc3c2C(N)=NS(=O)(=O)N3)cc(C)n1 | Ames test, confirmatory | TA98 | 5000 µg/plate | reference: solvent control | revertant ratio | 1.1

Repeated from above:
Compound | test | test system | setting | how to read | quantity | result
N#C[C@@]1(n2ccc(N)nc2=O)O[C@H](CO)[C@@H](O)[C@H]1O | – | TA98 | 10 µM, without S9 | – | viability | 96%
CN(N=O)c1ccc(F)cc1 | mutagenicity, Ames plate incorporation | TA100 | 5000 µg/plate, 3 d, without S9, methanol | – | revertant colonies per plate | 128 ± 12
